Experimental data from different studies.
Parts stem from different laboratories: compare values within a part only. Positions count from the first letter of the parent shown.

Study 1
Target: CCNB1, cyclin fold, Cln2 fusion (human)
Technique: yeast growth competition, sequencing
Sample: yeast
Notes: weak parent motif
Baseline: not given
Reading: higher = stronger binding
Parent: RB1 docking peptide (human); PKPLKKLRFDIEG
Variant	normalised enrichment score
PKPLKYLRFDIEG [K6Y]	-0.431
PKPLKKLRFPIEG [D10P]	0.729
PKPLKKLRFDIEH [G13H]	0.558
PKSLKKLRFDIEG [P3S]	1.44
PKPLKKNRFDIEG [L7N]	0.849
PKPLKKSRFDIEG [L7S]	1.08
PKPLKKARFDIEG [L7A]	0.551
PEPLKKLRFDIEG [K2E]	0.633
PKPLSKLRFDIEG [K5S]	0.843
PKPSKKLRFDIEG [L4S]	0.456
PKPLKKLRFDIEY [G13Y]	-0.445
PKPLKKTRFDIEG [L7T]	0.486
PFPLKKLRFDIEG [K2F]	0.748
PKPLKKQRFDIEG [L7Q]	0.417
PKPLKKLRLDIEG [F9L]	0.475
PKPLKKLRFDNEG [I11N]	0.973
PKPLKKLRFDISG [E12S]	-0.0312
PKPLKKLRFDIES [G13S]	1.06
PKPLKKLRFDING [E12N]	0.408
PKPKKKLRFDIEG [L4K]	0.0878
PKPLKKLRFTIEG [D10T]	-0.284
PKPLKKLRFDILG [E12L]	1.25
PKPLKKLRFDREG [I11R]	-0.0682
PKDLKKLRFDIEG [P3D]	1.19
PKPLKKLRFVIEG [D10V]	-0.317

Study 2
Target: Interferon regulatory factor 5, full length, phosphomimetic (IRF5, Homo sapiens, UniProt Q13568-2, residues 1-514, K96S/S451D/S453D/S456D/S462D)
Technique: protein-binding microarray
Molecule type: double-stranded DNA, one strand shown
Sample: in vitro
Tested at: 250 nM
Notes: 60-bp whole probe
Added: salmon DNA 0.4 mg/ml
Baseline: random background probes
Reading: higher = stronger binding
Constant ends, left off below: GCCTAGCAC … GTCTTGATTCGCTTGACGCTGCTG
Strand	log fluorescence [z-score]
GACGGTATCGACTTCCGGGACGTGCTA	2.47
TATAGCTGATACATATAGCCGTGCTAG	0.0377
TCATCTTTCGTTACTTCACTGTGCTAG	6
TTAGGTTACCTTCTCCTTTAGTGCTAG	0.258
TTAGGATTGGACTATCGGTTAGTGCTA	5.55
TTAGGTTCCCTTTTCCTCTAGTGCTAG	0.612
TCACCTCTAGACTCTAAAACTGTGCTA	0.456
TTAGATCTCATTCTCGATTAGTGCTAG	0.864
TTAGGTTTAGGTCTCGGTTAGTGCTAG	0.482
TTAGGTTTCGGTTCCGGTTAGTGCTAG	10.6
TTAGGTTTCCTTCTCCTATAGTGCTAG	1.33
TTAGGTATCGACTCTGGGTTAGTGCTA	2.52
TTAGATCTCAGCATCGATTAGTGCTAG	0.385
TTAGGTTTCGGGATCGGTTAGTGCTAG	7.19
TTAGGCTTCCTTTCCCTTTAGTGCTAG	0.463
TTAGGTTCCCTTTTCATTTAGTGCTAG	1.01
TCAAATTCCTGAAATCTCACTGTGCTA	0.477
GACGAACTGTGTTTCGAGACGTGCTAG	2.25
ACCACTCTTGCTTTTTAGATGTGCTAG	0.415

Study 3
Target: Histone acetyltransferase KAT6A, winged helix 1, GST fusion (KAT6A, Homo sapiens, UniProt Q92794, residues 1-85)
Technique: protein binding microarray
Molecule type: double-stranded DNA, one strand shown
Sample: in vitro
Tested at: not given
Notes: 8-mer, flanks averaged, mean of 2 arrays, mostly near background
Baseline: not given
Reading: higher = stronger binding
Residues (chain): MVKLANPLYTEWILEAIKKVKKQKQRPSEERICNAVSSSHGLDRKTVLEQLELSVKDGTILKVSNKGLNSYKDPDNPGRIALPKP
Strand	E-score
CCGCCTGA	0.298
GCGGGTAC	0.313
AACTTTCA	-0.154
CTTTTATA	0.0309
AGTCTTCG	-0.184
CAATGACC	-0.0874
TATCAATA	-0.135
GTCCACCA	-0.157
TCGGGAGA	0.0681
GATAGTGC	-0.0464
ACCCCTGA	-0.0963
ACTATCAT	0.0388
CGTTACAG	-0.0533
AGAGTCCA	-0.196
ACTCATTC	-0.0137
AACAAGTA	-0.135
GGAGATAC	0.0178
CCGGCAGG	0.168
CGCGTTAG	0.358
CTATGGAC	0.0551
GCTTCGAA	-0.0451
GGTTCGTA	-0.0406
ATTAATCC	-0.0748
CTCCACAG	-0.242
GCGCGAAA	0.204

Study 4
Target: RNA binding protein fox-1 homolog 2, RRM domain, GST-SBP tag (RBFOX2, Homo sapiens, UniProt O43251-10, residues 100-194)
Technique: RNA Bind-n-Seq
Molecule type: RNA
Sample: in vitro
Tested at: 365 nM
Notes: natural RNA segment, single round, ends assumed
Baseline: no-protein control
Reading: higher = stronger binding
Constant ends, left off below: GGGAGUUCUACAGUCCGACGAUC … UGGAAUUCUCGGGUGCCAA
Construct (chain): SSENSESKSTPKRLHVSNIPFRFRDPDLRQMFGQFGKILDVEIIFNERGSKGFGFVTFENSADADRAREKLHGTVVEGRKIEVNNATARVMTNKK
Strand	RBNS enrichment (R)
AUUUCCCUUACUCUGAAGUUCCGGCAUUCACAUCAUUCAUGUUUUCUUUUGUCUUUUAGCUAAAGGAAAAGCAUUGGCGAUUUGUCUGAUUCUGGUUUUGAGUUACUCUU	0.218
UGUUCUUUAAACUCUAGGAUCCAUCUUUGGACCAAAAGUCUGGUCUGGGCCUAGGAUGGCAUUGGCCCUCGAUGCUAGAGUUGGCUGCAUUCUCUCCUUACCUGCAGACU	0.638
UGUGAAAGAUUAAAGAAAGCACUUCCACUUGAGCUCCUUAUGGAGUGAGCUUCCCUGUGCCCACUCAGUGAACUAAGUCUGACCAUCCUUCAGGGACGUUCCUUUUGGUA	0.262
CCUGAGGCCAGAAGAUUCCCUAACCCAGGACUUUGAAGCCAACCUAGGCAACAUGAUGGGGACCCUCCCCAUUCUUCAUAAAAAUCCCCUCAAGAUCCUCAAGUUGAAUG	0.292
GAACAGAACACUUCUAGGACUGGGGGUCUUUUAGCUCCAUAAGCAAGUGAGCAGAUGGGACAAGUUAGUCUUUUCUCCCUAGAAACAAAGGGGAUGCCCAGUGGUUUCCC	0.253
CAGCCCAAAAAGAGGUGCUUGUGAGCACACCCACCCAAGUGAACCCAGUGGCUGCCAUGGUCCUCUUCAGGCUCAGAGAUGGGUCUAGCCCUGGCCUUGCUCUGAUCAGC	0.387
AACACUGGCCCGGAAGCCGCCCUCCAUACAGGCCCUCAGGGGGCCUGCCUUCUGCGCCUCAGUCCCCCGUGCAUCCCUGGGCCUGGGUAUCACAUGCUCUCCAGGAAAGG	1.55
UCCUCUUAGACAAUAUUCAUUAAAUCUGAGGACACAGUUUGACAGUAGUUCAGAUUCUUGCAUGAGCAAUUGACAGCAUCAGAGCACACAAUAUCAUAAGUUACAUAAAU	6.33

For quick reference, copied from above (study 3):
Strand	E-score
CTTTTATA	0.0309
AACAAGTA	-0.135
GCTTCGAA	-0.0451
CAATGACC	-0.0874
GCGGGTAC	0.313
ACTCATTC	-0.0137
ACCCCTGA	-0.0963
